Results gathered from unrelated publications.
A part holds a random share of what one study measured.
Sequence of UniProt P10721 (whole entry, unmodified, looked up): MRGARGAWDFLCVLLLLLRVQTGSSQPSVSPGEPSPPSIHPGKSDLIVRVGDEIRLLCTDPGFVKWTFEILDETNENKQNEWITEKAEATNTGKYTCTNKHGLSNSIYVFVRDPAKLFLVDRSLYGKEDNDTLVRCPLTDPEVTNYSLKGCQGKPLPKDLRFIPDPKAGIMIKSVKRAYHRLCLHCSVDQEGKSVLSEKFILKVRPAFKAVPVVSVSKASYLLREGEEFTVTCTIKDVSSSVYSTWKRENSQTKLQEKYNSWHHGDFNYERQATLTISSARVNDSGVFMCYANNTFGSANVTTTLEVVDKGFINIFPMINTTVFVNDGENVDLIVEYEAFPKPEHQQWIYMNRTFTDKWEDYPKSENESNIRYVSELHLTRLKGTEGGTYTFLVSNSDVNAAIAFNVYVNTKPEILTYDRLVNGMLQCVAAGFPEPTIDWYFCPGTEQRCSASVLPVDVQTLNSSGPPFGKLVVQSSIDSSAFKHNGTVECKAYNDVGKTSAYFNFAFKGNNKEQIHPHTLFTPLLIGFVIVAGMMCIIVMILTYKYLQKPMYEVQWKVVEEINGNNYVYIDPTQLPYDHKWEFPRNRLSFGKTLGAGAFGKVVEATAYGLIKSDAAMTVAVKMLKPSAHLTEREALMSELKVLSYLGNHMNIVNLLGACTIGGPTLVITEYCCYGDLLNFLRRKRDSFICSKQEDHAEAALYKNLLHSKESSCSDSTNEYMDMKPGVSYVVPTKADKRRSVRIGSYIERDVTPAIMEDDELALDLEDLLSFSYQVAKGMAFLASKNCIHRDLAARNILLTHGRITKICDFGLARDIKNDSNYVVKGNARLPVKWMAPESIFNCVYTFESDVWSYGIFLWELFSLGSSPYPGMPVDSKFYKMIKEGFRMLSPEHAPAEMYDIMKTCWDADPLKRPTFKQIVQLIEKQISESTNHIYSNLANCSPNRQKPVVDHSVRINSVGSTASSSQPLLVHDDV
Sequence of UniProt Q9NY57 (whole entry, looked up): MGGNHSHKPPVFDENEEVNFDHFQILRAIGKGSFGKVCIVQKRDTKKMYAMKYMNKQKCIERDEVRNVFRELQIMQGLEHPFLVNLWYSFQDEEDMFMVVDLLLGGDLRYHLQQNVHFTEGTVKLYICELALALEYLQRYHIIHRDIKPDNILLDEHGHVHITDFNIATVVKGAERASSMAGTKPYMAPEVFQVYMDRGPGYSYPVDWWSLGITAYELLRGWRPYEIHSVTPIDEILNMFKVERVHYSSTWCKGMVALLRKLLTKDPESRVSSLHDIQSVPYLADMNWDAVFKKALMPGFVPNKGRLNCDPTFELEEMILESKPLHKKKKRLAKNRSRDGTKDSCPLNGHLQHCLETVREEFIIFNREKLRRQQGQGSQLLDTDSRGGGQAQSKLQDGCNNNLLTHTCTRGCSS
Sequence of UniProt Q9HBY8 (whole entry, looked up): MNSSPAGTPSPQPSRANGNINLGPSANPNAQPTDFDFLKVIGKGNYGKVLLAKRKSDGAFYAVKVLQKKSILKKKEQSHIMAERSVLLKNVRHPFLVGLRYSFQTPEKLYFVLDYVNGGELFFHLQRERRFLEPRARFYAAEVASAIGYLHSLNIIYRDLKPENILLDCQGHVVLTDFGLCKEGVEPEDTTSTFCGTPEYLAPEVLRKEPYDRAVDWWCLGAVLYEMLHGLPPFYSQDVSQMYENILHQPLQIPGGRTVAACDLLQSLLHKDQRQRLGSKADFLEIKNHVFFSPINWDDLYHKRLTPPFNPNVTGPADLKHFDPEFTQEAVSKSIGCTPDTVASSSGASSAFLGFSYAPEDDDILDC
Sequence of UniProt P50613 (whole entry, looked up): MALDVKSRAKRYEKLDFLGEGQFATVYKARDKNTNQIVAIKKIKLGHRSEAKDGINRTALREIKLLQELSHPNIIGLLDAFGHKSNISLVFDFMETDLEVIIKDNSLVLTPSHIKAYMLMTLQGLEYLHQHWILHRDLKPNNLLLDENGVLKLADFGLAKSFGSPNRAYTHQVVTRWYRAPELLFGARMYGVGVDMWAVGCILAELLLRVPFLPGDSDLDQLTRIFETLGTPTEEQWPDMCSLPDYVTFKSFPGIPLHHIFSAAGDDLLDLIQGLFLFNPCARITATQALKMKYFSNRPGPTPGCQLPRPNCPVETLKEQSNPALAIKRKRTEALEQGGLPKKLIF
Sequence of UniProt P42338 (whole entry, looked up): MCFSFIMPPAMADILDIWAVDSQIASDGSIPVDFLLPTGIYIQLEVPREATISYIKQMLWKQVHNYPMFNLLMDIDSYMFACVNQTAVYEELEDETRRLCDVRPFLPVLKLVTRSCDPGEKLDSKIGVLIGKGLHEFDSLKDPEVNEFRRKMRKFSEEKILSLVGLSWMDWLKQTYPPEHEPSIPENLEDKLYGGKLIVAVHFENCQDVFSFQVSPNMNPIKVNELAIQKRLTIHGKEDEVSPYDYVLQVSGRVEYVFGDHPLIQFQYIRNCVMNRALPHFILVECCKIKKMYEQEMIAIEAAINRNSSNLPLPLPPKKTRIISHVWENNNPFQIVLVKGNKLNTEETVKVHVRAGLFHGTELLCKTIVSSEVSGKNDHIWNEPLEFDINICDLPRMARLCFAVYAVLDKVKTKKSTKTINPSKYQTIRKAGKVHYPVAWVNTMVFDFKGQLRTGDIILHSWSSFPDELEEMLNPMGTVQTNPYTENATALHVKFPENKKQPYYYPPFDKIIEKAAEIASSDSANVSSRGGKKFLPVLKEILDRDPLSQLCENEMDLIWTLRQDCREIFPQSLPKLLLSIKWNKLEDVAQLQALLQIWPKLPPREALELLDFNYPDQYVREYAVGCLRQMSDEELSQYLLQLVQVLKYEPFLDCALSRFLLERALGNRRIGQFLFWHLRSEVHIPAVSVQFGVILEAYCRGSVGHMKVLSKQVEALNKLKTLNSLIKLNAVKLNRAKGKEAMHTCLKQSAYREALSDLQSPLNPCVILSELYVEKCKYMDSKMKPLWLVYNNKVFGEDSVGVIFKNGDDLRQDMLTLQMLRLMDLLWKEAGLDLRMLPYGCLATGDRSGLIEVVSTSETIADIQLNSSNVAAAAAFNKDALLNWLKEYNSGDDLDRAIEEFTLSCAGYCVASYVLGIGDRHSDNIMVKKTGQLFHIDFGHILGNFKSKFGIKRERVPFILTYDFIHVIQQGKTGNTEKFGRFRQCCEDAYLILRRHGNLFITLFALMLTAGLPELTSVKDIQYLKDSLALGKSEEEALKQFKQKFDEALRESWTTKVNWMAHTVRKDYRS
Sequence of UniProt O75716 (whole entry, looked up): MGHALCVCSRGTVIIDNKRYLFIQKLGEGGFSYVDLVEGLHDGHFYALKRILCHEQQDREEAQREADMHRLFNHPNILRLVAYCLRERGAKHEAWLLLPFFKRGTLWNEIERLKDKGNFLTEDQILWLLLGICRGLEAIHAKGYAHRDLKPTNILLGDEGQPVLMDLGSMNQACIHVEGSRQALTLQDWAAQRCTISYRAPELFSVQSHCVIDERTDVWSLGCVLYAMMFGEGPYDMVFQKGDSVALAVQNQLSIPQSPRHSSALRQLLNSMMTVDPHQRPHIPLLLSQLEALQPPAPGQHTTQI

Set 1
SMILES: CCC1(c2cccc(-c3cn(C)nc3C)c2)C2=C(Nc3n[nH]cc31)C(F)C(C)(C)CC2=O (single isomer, unassigned)
Concentration: 1 µM
Measurement: remaining binding
target = Ribosomal protein S6 kinase alpha-2, C-terminal kinase domain (RPS6KA2, Homo sapiens, UniProt Q15349); test = kinase binding, KINOMEscan; how to read = relative to: DMSO control; value = 99%
target = Maternal embryonic leucine zipper kinase (MELK, Homo sapiens, UniProt Q14680); test = kinase binding, KINOMEscan; how to read = relative to: DMSO control; value = 95%
target = Ribosomal protein S6 kinase alpha-1, C-terminal kinase domain (RPS6KA1, Homo sapiens, UniProt Q15418); test = kinase binding, KINOMEscan; how to read = relative to: DMSO control; value = 97%
target = Mast/stem cell growth factor receptor Kit (KIT, Homo sapiens, UniProt P10721, L576P); test = binding, competition with immobilised ligand; value = 77%
target = Serine/threonine-protein kinase 32B (STK32B, Homo sapiens, UniProt Q9NY57); test = binding, competition with immobilised ligand; value = 82%
target = Serine/threonine-protein kinase RIO2 (RIOK2, Homo sapiens, UniProt Q9BVS4); test = binding, competition with immobilised ligand; value = 84%
target = Protein-tyrosine kinase 6 (PTK6, Homo sapiens, UniProt Q13882); test = binding, competition with immobilised ligand; value = 100%
target = Cyclin-dependent kinase 7 (CDK7, Homo sapiens, UniProt P50613); test = kinase binding, KINOMEscan; how to read = relative to: DMSO control; value = 100%
target = Mitogen-activated protein kinase kinase kinase 1 (MAP3K1, Homo sapiens, UniProt Q13233); test = kinase binding, KINOMEscan; how to read = relative to: DMSO control; value = 81%
target = Atypical kinase COQ8A, mitochondrial (COQ8A, Homo sapiens, UniProt Q8NI60); test = kinase binding, KINOMEscan; how to read = relative to: DMSO control; value = 100%
target = Phosphatidylinositol 4-phosphate 5-kinase type-1 gamma (PIP5K1C, Homo sapiens, UniProt O60331); test = kinase binding, KINOMEscan; how to read = relative to: DMSO control; value = 100%
target = Mast/stem cell growth factor receptor Kit, autoinhibited (KIT, Homo sapiens, UniProt P10721); test = binding, competition with immobilised ligand; value = 90%

Set 2
SMILES: CN(C1COC1)C(C)(C)/C=C(\C#N)C(=O)N1CCC[C@H]1Cn1nc(-c2ccc(Oc3ccccc3)cc2F)c2c(N)ncnc21
Effect on: kinase activity
Measurement: inhibition
target = MAP kinase-activated protein kinase 5 (MAPKAPK5, Homo sapiens, UniProt Q8IW41); setting = 1 µM; value = 0%
target = Platelet-derived growth factor receptor alpha (PDGFRA, Homo sapiens, UniProt P16234); setting = 0.1 µM; value = -9%
target = Leucine-rich repeat serine/threonine-protein kinase 2 (LRRK2, Homo sapiens, UniProt Q5S007, G2019S); setting = 1 µM; value = 1%
target = Ephrin type-A receptor 2 (EPHA2, Homo sapiens, UniProt P29317); setting = 1 µM; value = 1%
target = Serine/threonine-protein kinase DCLK2 (DCLK2, Homo sapiens, UniProt Q8N568); setting = 1 µM; value = 1%
target = Insulin receptor (INSR, Homo sapiens, UniProt P06213); setting = 1 µM; value = -2%
target = Tyrosine-protein kinase TXK (TXK, Homo sapiens, UniProt P42681); setting = 0.1 µM; value = 52%
target = Phosphatidylinositol 4,5-bisphosphate 3-kinase catalytic subunit beta isoform (PIK3CB, Homo sapiens, UniProt P42338); setting = 0.1 µM; value = 4%
target = Serine/threonine-protein kinase 16 (STK16, Homo sapiens, UniProt O75716); setting = 1 µM; value = 9%
target = Serine/threonine-protein kinase Sgk2 (SGK2, Homo sapiens, UniProt Q9HBY8); setting = 1 µM; value = 6%
target = Focal adhesion kinase 1 (PTK2, Homo sapiens, UniProt Q05397); setting = 0.1 µM; value = 5%

Set 3
Structure (SMILES): C[C@@H]1CN(c2ccc(-c3cc(C(=O)NCCOCCOCCOCCOCCNC(=O)Cn4cc(-c5[nH]cc(C(=O)N[C@@H](CC(N)=O)c6ccc(F)c(Cl)c6)c5-c5ccc(Cl)cc5F)cn4)ccc3F)cc2NC(=O)c2c[nH]c(=O)cc2C(F)(F)F)C[C@H](C)N1C
Effect on: thermal unfolding
Technique: differential scanning fluorimetry
Concentration: 5.5 µM
Direction: higher = more unfolded
Measurement: SYPRO Orange fluorescence
WDR5: WD repeat-containing protein 5 (WDR5, Homo sapiens, UniProt P61964)
DCAF1: DDB1- and CUL4-associated factor 1 (DCAF1, Homo sapiens, UniProt Q9Y4B6)
Sequence of UniProt Q9Y4B6 (whole entry, looked up): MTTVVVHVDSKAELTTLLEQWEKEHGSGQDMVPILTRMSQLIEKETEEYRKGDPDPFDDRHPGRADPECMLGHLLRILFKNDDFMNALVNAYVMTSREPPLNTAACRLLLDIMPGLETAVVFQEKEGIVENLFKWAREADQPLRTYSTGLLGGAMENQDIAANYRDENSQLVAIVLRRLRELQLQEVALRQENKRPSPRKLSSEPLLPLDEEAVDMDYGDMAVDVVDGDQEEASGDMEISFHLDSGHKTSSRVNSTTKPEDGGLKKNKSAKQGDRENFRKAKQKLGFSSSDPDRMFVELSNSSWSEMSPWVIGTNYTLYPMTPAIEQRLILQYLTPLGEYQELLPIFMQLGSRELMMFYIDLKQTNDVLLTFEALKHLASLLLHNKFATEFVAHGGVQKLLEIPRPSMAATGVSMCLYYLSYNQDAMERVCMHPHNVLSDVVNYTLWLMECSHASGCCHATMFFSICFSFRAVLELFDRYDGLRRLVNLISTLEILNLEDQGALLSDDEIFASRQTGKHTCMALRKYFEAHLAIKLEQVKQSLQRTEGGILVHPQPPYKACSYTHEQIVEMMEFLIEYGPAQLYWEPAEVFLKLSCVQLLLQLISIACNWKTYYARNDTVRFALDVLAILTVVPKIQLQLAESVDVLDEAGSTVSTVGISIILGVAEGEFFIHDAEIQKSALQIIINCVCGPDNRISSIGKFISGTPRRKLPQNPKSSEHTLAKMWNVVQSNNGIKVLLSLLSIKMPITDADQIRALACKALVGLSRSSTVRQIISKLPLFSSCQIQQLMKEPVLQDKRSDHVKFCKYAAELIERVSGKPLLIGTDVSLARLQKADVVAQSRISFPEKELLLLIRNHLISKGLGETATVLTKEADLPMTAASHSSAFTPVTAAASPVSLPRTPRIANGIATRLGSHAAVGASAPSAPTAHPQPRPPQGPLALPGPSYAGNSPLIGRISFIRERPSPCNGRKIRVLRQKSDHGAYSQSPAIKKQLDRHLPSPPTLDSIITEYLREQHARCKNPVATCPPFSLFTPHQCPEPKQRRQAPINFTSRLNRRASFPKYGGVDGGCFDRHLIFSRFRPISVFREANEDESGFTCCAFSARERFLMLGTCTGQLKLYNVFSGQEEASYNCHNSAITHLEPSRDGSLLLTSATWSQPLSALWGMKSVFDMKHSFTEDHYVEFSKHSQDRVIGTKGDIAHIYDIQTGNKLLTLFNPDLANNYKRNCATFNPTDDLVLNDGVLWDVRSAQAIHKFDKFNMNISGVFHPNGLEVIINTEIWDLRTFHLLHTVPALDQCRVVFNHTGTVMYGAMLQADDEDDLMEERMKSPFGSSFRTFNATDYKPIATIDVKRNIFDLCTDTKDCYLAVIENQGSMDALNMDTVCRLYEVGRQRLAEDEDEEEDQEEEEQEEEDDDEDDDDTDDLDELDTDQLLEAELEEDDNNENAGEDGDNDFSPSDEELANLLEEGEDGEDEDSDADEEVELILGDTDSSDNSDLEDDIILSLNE
target = WDR5; setting = 41.8 °C; value = 14200 a.u.
target = DCAF1; setting = 58.81 °C; value = 32200 a.u.
target = DCAF1; setting = 63.61 °C; value = 53300 a.u.
target = WDR5; setting = 90.61 °C; value = 42800 a.u.
target = WDR5; setting = 54.61 °C; value = 13800 a.u.
target = WDR5; setting = 51.6 °C; value = 14400 a.u.
target = WDR5; setting = 59.61 °C; value = 10600 a.u.
target = DCAF1; setting = 40.8 °C; value = 10700 a.u.
target = DCAF1; setting = 62.61 °C; value = 50100 a.u.
target = DCAF1; setting = 93.81 °C; value = 31200 a.u.
target = DCAF1; setting = 87.81 °C; value = 37200 a.u.

Set 4
Structure (SMILES): CCN1/C(=C/C=C2\CCCC(/C=C/C3=[N+](CC)c4ccccc4C3(C)C)=C2NCCCCCCCCN2CCC(Nc3nc4ccccc4n3Cc3ccc(F)cc3)CC2)C(C)(C)c2ccccc21
Cell line: U-87 MG
Concentration: concentration not given
Relative to: DMSO
Measurement: log2 fold change
test = refers to: ZNF367 mRNA; value = -2.13
test = refers to: BOC mRNA; value = -1.5
test = refers to: WASF1 mRNA; value = 0.804
test = refers to: LRRC45 mRNA; value = -1.6
test = refers to: PDLIM7 mRNA; value = -1.1
test = refers to: TNFRSF11B mRNA; value = -3.25
test = refers to: ARL6IP1 mRNA; value = -1.05
test = refers to: CAVIN1 mRNA; value = -1.71
test = refers to: EPB41L4B mRNA; value = -0.863
test = refers to: DUSP10 mRNA; value = 1.41
test = refers to: CHST14 mRNA; value = -0.901
test = refers to: ASIC1 mRNA; value = -2.34
test = refers to: COL9A2 mRNA; value = -1.73
test = refers to: DNAJC6 mRNA; value = 0.917
test = refers to: XIRP1 mRNA; value = 6.27
test = refers to: TUBB mRNA; value = -1.81

Some of these lines once more (set 4):
test = refers to: ARL6IP1 mRNA; value = -1.05
test = refers to: COL9A2 mRNA; value = -1.73
test = refers to: ZNF367 mRNA; value = -2.13
test = refers to: TUBB mRNA; value = -1.81
test = refers to: XIRP1 mRNA; value = 6.27
test = refers to: EPB41L4B mRNA; value = -0.863
test = refers to: BOC mRNA; value = -1.5
test = refers to: TNFRSF11B mRNA; value = -3.25
